Experimental data of several laboratories.
Lines come from different studies, so protocols differ.

`CC(=O)c1c(C)c2cnc(Nc3ccc(C4CCN(CCS(C)(=O)=O)CC4)cn3)nc2n(C2CCCC2)c1=O` — result for “patients with AST increased”: 0% (HR+/HER2- advanced breast cancer patients; oral, 100 mg twice daily, grade 3/4,, monotherapy).
Under “patients with AE”, `CO[C@H]1C[C@@H]2CC[C@@H](C)[C@@](O)(O2)C(=O)C(=O)N2CCCC[C@H]2C(=O)O[C@H]([C@H](C)C[C@@H]2CC[C@@H](OC(=O)NCCOCCOCCOCCOCCOCCOCCOCCOCCC(=O)N3CCc4cc(Cn5nc(-c6ccc7oc(N)nc7c6)c6c(N)ncnc65)ccc4C3)[C@H](OC)C2)C[C@@H](O)[C@H](C)/C=C(\C)[C@@H](O)[C@@H](OC)C(=O)[C@H](C)C[C@H](C)/C=C/C=C/C=C/1C` is recorded as 11% (refers to: AEs leading to dose reduction; patients with advanced solid tumours; intravenous, dose not given, all patients, weekly).
For `N[C@@H]1c2ccccc2OC12CCN(c1cnc3c(N4CCCc5ncccc54)n[nH]c3n1)CC2`, “patients with dose reductions” read 20% (phase Ia; patients advanced metastatic solid tumours; oral, dose not given).
Under “patients with adverse event”, `CCN(CCO)CCCC(C)Nc1ccnc2cc(Cl)ccc12` (stereo not shown) is recorded as 14% (refers to: Fever grade 1; newly diagnosed glioblastoma patients; oral, 400 mg/dose, with radiotherapy and temozolomide).
For `COc1c(OCCCN2CCOCC2)ccc2c1N=C(NC(=O)c1cnc(N)nc1)N1CCN=C21`, “patients with adverse event” read 64% (refers to: Anaemia; patients with advanced malignancies; intravenous, dose not given, any grade, all cohorts, together with: gemcitabine).
Under “patients with vomiting TEAE”, `C=CCNc1c(O)cc2c(O)c1C[C@@H](C)C[C@H](OC)[C@H](O)[C@@H](C)/C=C(\C)[C@H](OC(N)=O)[C@@H](OC)/C=C\C=C(/C)C(=O)N2` is recorded as 67% (unresectable or metastatic STS, GIST, other; intravenous, 90 mg/m^2).
`Nc1nc2cc(-c3ccc4ncc(C(=O)N5CCOCC5)n4c3)ccc2o1`: “patients with adverse events” 0% (refers to: Cough, any cause, grade ≥3; patients with advanced solid tumours; dose not given).
For `O=C1Nc2cc3[nH]nc(-c4ccncc4)c3cc2CN1Cc1ccccc1`, “patients with back pain” read 67% (CTCAE v4.03; advanced solid tumour patients; intravenous, 3.6 mg/kg, schedules 1/2).
For `CN1CC[C@@H](c2c(O)cc(O)c3c(=O)cc(-c4ccc(C(F)(F)F)cc4Cl)oc23)[C@@H]1CO`, “patients with adverse event” read 25% (refers to: Dizziness; AML; oral, 150 mg, intermittent dosing).
`C[C@@H]1OC(=O)NN=C1c1ccc(-c2ccc(F)cc2)c(C(F)(F)F)c1` — result for “patients with non-cardiac chest pain”: 20% (patients, phase I trial; oral, dose not given, all arms, any grade TEAE).

Repeated from above:
For `N[C@@H]1c2ccccc2OC12CCN(c1cnc3c(N4CCCc5ncccc54)n[nH]c3n1)CC2`, “patients with dose reductions” read 20% (phase Ia; patients advanced metastatic solid tumours; oral, dose not given).
Under “patients with adverse event”, `CCN(CCO)CCCC(C)Nc1ccnc2cc(Cl)ccc12` (stereo not shown) is recorded as 14% (refers to: Fever grade 1; newly diagnosed glioblastoma patients; oral, 400 mg/dose, with radiotherapy and temozolomide).
